Experimental data from different studies.
Protocols differ between the studies behind these lines. Several values in a cell are separate wells, animals, samples, runs or records.
Target: Tyrosine-protein kinase SYK (SYK, Homo sapiens, UniProt P43405)

COc1cc(Nc2nc(C)cc(-c3cnn4nc(OC)ccc34)n2)cc(C(F)(F)F)c1  remaining binding (binding, competition with immobilised ligand; 1 µM): 100%
Cc1cccc(-c2ccc3nc(NC(=O)C4CCOCC4)nn3c2)c1  remaining activity (enzyme activity, Dundee kinase panel; 10 µM): 95%
COc1c(Cl)cccc1Nc1c(-c2ccncc2C#C[C@@]2(C)CCCN2C(=O)/C=C/CN(C)C)[nH]c2c1C(=O)NCC2  remaining binding (cell-free assay, competition with immobilised ligand; 3 µM): 100%
COc1cc(-n2cc3cc(F)cc(C(N)=O)c3n2)cc(Cl)c1C1CC(O)(CCO)Cc2ccccc21 (centres unmarked)  inhibition (enzyme activity, inhibitor; 10 µM): 2.76%
Cc1ccc(-c2c(/C=C(\C#N)C(=O)NC(C)C)n(CCCO)c3ncnc(N)c23)cc1  remaining binding (cell-free assay, competition with immobilised ligand; 1 µM): 79%
c1ccc2c(Nc3cc(C4CCC4)[nH]n3)nc(Nc3ccc4nc[nH]c4c3)nc2c1  remaining activity (enzyme activity, inhibitor; 0.25 µM): 15%
CNC(=O)C1CCN(c2cc(C)c(F)cc2NC(=O)c2ccc(-c3cc(O)ccc3C)c(C)c2)CC1  remaining binding (binding, competition with immobilised ligand; 1 µM): 90%
Cc1cnc2nc1Nc1cccc(c1)COC/C=C/COCc1cc(ccc1OCCN1CCOCC1)N2  remaining binding (concentration not given; baseline: DMSO control): 83%
CC(C)=CC1OC(C)(C)C2C=C3C(=O)C(Cl)=CC(O)C3C3C(O)C4OC4C(=O)C132 (centres unmarked)  remaining binding (cell-free assay, competition with immobilised ligand; 10 µM): 95%
CNC(=O)C[C@H](Cc1ccc(C#N)cc1)NC(=O)c1cc(-c2ccc(CN[C@H](C)c3ccc(C)cc3)o2)ccc1Cl  activity vs control (enzyme activity, inhibitor; 1 µM): 114%
COc1ccc(NC(=O)Nc2ccc3c(c2)C(=O)N(C(C)CO)CC(C)C(CN(C)Cc2ccc4c(c2)OCO4)O3)cc1 (centres unmarked)  remaining activity (kinase activity, KinaseProfiler; 0.03 µM, species human; baseline: control): 108%
C[C@H]1CN(C(=O)c2cn(-c3ccnc(N)n3)c3cc(C#CC4(O)CCCCC4)ccc23)CCN1  inhibition (enzyme activity, inhibitor, FRET; 1 µM): -1%
C=CC(=O)N1CCc2ccc(-n3c(=O)ccc4cnc5ccc(-c6cnn(C)c6)cc5c43)cc21  remaining binding (KINOMEscan; 1 µM; baseline: DMSO control): 100%
Cc1cccc(-c2ccc3nc(NC(=O)C4CCCCC4)nn3c2)c1  remaining activity (enzyme activity, Dundee kinase panel; 10 µM): 94%
NC(=O)[C@@H](O)C[C@H]1CCc2sc3ncnc(O[C@H]4CC[C@H](N5CCOCC5)CC4)c3c21  inhibition (enzyme activity, inhibitor; 10 µM): 9%
O=C=[N][Ru-4]123([n]4c5ccc(O)cc5c5c6c(c7cc(F)c[n+]1c7c54)C(=O)NC6=O)[S+]1CC[S+]2CC[S+]3CC1 (centres unmarked)  remaining activity (enzyme activity; 100 nM, human enzyme, together with: 10 µM ATP; baseline: untreated): 114%
CN1CCN(Cc2ccc(-c3ccc(CO[C@H]4CCC[C@@H]4NC(=O)c4cc(-c5cnn(C)c5)cnc4N)cc3)cc2)CC1  inhibition (enzyme activity, inhibitor; 0.1 µM): 0%
CCN1CCN(Cc2ccc(C(=O)Nc3ccc(C)c(NCc4cnc5[nH]ccc5c4OC)c3)cc2C(F)(F)F)CC1  remaining binding (binding, competition with immobilised ligand; 1 µM): 14%
Cc1cccc(O[C@H]2CCC[C@@H](C(C)CNCc3ccncc3)C2)c1 (relative stereo)  inhibition (kinase activity, kinome panel screening; 10 µM): -5%
C=CC(=O)Nc1cccc(-c2cnc3[nH]cc(C(=O)NC(C)(C)C)c3n2)c1  inhibition (kinase activity; 0.1 µM): 78% and 77%

A few entries again:
Cc1cnc2nc1Nc1cccc(c1)COC/C=C/COCc1cc(ccc1OCCN1CCOCC1)N2  remaining binding (concentration not given; baseline: DMSO control): 83%
COc1cc(Nc2nc(C)cc(-c3cnn4nc(OC)ccc34)n2)cc(C(F)(F)F)c1  remaining binding (binding, competition with immobilised ligand; 1 µM): 100%
